Experimental data gathered from unrelated publications.
Numbered parts are unrelated; each lists some results of a single study.

Series 1 — method: universal PBM; molecule type: double-stranded DNA, one strand shown; sample: in vitro; tested at: not given; reading: higher = stronger binding; quantity: E-score
Target: Sal-like protein 4, full length isoform B (SALL4, Homo sapiens, UniProt Q9UJQ4-2, residues 1-616)
Notes: 8-mer, flanks averaged, mean of replicates
Oligonucleotide = CCGAACGA; result = -0.155
Oligonucleotide = AAGGCACA; result = 0.0408
Oligonucleotide = AGGACGGG; result = -0.184
Oligonucleotide = AACACCTG; result = -0.0331
Oligonucleotide = ACATTTGC; result = 0.0991
Oligonucleotide = CAGAGAAG; result = -0.127
Oligonucleotide = AAAGATAC; result = 0.0457
Oligonucleotide = GGGAAGGA; result = -0.139
Oligonucleotide = AGGGGAAT; result = -0.0979
Oligonucleotide = GTGGTCTA; result = -0.0887
Oligonucleotide = GCTTAAGA; result = -0.101
Oligonucleotide = AATGGATC; result = -0.00262
Oligonucleotide = TCTGCCAA; result = 0.00925
Oligonucleotide = AATGTCAT; result = 0.184
Oligonucleotide = AGACCCCG; result = -0.181
Oligonucleotide = GGAGGACA; result = -0.00351
Oligonucleotide = ACCTGCTC; result = -0.147
Oligonucleotide = CCCTATCG; result = -0.0888
Oligonucleotide = CGTACTAG; result = -0.0413
Oligonucleotide = CAGACCCA; result = -0.145
Oligonucleotide = GAGCGCAC; result = -0.241
Oligonucleotide = ATTGAGAC; result = 0.0788
Oligonucleotide = ACTGGCGA; result = -0.24
Oligonucleotide = TGAATGCA; result = 0.132
Oligonucleotide = GCGAACGA; result = -0.149

Series 2 — method: RNA Bind-n-Seq; molecule type: RNA; sample: in vitro; tested at: 1 µM; notes: whole 134-nt RNA, ends assumed; together with: 150 mM KCl; relative to: input library; reading: higher = stronger binding; quantity: log2 enrichment
Target: Ras GTPase-activating protein-binding protein 1, RRM domain (G3BP1, Homo sapiens, UniProt Q13283)
Chain of UniProt Q13283 (whole entry, looked up): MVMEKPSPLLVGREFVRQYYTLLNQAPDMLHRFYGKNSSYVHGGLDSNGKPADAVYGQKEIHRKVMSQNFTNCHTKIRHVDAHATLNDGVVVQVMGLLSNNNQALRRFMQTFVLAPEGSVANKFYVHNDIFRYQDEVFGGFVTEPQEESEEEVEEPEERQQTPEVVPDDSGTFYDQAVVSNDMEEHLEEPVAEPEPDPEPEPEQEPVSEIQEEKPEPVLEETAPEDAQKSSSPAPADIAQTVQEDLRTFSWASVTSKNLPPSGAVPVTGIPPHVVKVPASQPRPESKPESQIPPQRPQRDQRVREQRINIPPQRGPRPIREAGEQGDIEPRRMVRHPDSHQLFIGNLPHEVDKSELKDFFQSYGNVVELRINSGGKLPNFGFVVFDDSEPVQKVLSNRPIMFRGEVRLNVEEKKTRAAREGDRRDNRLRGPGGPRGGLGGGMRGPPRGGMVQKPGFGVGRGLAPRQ
Oligonucleotide = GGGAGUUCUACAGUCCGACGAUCGCAGGAAGUAAAUACAAAUGGAAAUGCUUCGGAUAGUGGCAGGGGUGGGGGUUGCUAAGGAAAGGGUGGGAUGGGAGUGGGUAAAGAGUUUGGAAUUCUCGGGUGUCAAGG; result = 1.16
Oligonucleotide = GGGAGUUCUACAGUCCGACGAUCAAGUCCUGUGCUACACAUCGUAUGUACCGAAUCGGGAAAGGGAGGGAAAAAAAGGGAAAGUAUUAUGUUACGCCGUUCGGAUCUGCACUUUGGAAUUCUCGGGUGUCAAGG; result = 0.248
Oligonucleotide = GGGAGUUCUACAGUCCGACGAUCGUCCUGUGCUACACAUCGUAUGUACCGAAUCAAACCCCCAAACCCCCAAACCCCCAAAAAAGUAUUAUGUUACGCCGUUCGGAUCUGCACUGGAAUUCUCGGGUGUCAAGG; result = -0.215
Oligonucleotide = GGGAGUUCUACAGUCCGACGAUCGUCCUGUGCUACACAUCGUAUGUACCGAAUCGGGGUUUGGGGAGGGGAAAAAAAGGGGAAAGUAUUAUGUUACGCCGUUCGGAUCUGCACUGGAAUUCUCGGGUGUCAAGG; result = 0.725
Oligonucleotide = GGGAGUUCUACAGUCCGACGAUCGUCCUGUGCUACACAUCGUAUGUACCGAAUCGGUUUUUUUGGUUUUUUUGGAAAAAGGAAAGUAUUAUGUUACGCCGUUCGGAUCUGCACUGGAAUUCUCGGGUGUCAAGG; result = -0.317
Oligonucleotide = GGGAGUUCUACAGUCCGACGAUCACUGAGGUACUGCCCUCCCCUGCCCCCUACCCUCUCCCUUGUCCCUCUACCCCGUUCCUCCCCUUCCCUCCAUUCCCUUUCCCCAACCUGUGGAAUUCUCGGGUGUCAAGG; result = -0.284
Oligonucleotide = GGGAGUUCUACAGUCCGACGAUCUCAAGUCCUGUGCUACACAUCGUAUGUACCGAAUCGGAAAGGAAAAAAAGGAGGAAAGUAUUAUGUUACGCCGUUCGGAUCUGCACUUCCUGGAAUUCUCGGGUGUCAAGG; result = -0.0805
Oligonucleotide = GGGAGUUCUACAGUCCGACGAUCAGUCCUGUGCUACACAUCGUAUGUACCGAAUCGGGAAAGGGUUUGGGUUUUUUUGGGAAAGUAUUAUGUUACGCCGUUCGGAUCUGCACUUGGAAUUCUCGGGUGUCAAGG; result = 0.197
Oligonucleotide = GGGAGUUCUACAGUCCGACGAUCUGGCCCUGGUGGCAUGCGGGGAGGAAGAGGUGGCCUCAGGGAUCGUGGUGGUCCCGGUGGAAUGUUCAGAGGUGGCCGUGGUGGAGACAGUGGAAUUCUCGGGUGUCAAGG; result = 1.07
Oligonucleotide = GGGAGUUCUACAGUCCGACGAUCGUCCUGUGCUACACAUCGUAUGUACCGAAUCGGAAAAAAAGGUUUUUUUGGAAAAAGGAAAGUAUUAUGUUACGCCGUUCGGAUCUGCACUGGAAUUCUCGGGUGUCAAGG; result = -0.356
Oligonucleotide = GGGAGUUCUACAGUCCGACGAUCCUGUGCUACACAUCGUAUGUACCGAAUCGGGGUUUUUUUGGGGUUUUUUUGGUUUUUUUGGGAAAGUAUUAUGUUACGCCGUUCGGAUCUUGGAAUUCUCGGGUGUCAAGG; result = -0.289
Oligonucleotide = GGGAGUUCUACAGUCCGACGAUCAAGUCCUGUGCUACACAUCGUAUGUACCGAAUCGGGGAAAAGGAAAAGGAAAAGGGAAAGUAUUAUGUUACGCCGUUCGGAUCUGCACUUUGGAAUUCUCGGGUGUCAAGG; result = -0.0902
Oligonucleotide = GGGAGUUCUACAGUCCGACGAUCUCUGUUUCCUCUGCCAGUGGCAAUGCAACACCUAACACUCCUGGGGAUGAGUCUCCCUGUGGUAUUAUUAUUCCUCAUGAAAACUCACCAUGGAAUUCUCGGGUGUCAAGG; result = 0.0618
Oligonucleotide = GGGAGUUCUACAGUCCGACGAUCUCAGAGGAAUAUCCUUGACUUCCCCCAGCAUGUUUCCCCCUCCAAGGACAUCCGGACAGCCAGCACAGAGGCCGACAAGAAGCUCUCUGAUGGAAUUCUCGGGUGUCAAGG; result = -0.0913

Series 3 — method: RNA Bind-n-Seq; molecule type: RNA; sample: in vitro; tested at: not given; relative to: input RNA pool; reading: higher = stronger binding; quantity: bound/input enrichment
Target: RING finger protein unkempt homolog, zinc fingers 1-6, GST-SBP tag (UNK, Homo sapiens, UniProt Q9C0B0, residues 30-357)
Chain of UniProt Q9C0B0 (30-357, looked up): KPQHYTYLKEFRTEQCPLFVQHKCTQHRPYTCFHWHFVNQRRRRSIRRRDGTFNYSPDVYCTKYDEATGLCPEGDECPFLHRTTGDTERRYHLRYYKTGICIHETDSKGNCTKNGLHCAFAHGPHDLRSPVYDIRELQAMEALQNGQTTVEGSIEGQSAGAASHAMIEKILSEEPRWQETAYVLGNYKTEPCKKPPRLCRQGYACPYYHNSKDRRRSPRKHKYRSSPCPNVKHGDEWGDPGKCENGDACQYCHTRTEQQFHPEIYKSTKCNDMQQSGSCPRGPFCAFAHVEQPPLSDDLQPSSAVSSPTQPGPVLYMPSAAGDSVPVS
Notes: RNA with constant flanks, human and mouse sites, ends assumed
Oligonucleotide = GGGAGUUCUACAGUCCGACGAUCCUGAACAAAAUUACCAAAAACCUAGGGUUUGGGAUGGGAAUUGAAUUCCGUGAAGGCUCCCUAGUAAUCAAUAGCAAAAAUCAAUACAAACUGAAGAAAGGAAUGGUUUUCAGCAUCAAUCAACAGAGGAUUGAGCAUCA; result = 53.5 ratio
Oligonucleotide = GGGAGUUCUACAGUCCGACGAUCCUUGGGGACCUUCGAACUCUGGAGCUGCUGCUUAUCUGUGCAGGCCAUCCUCAAUAUGAGGUAGUAGAAAUUUCAUUUAACUUUUGGUACCGACUGGGGGAACAUUUGUACAAAACUAACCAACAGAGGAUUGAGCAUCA; result = 0.328 ratio
Oligonucleotide = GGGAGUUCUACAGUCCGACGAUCAUCAUUGGUUAUGCCAGAAACCCUUCGCUGAAGCAGCAGCUGUUCUCAUAUGCUAUCCUGGGAUUUGCCUUGUCUGAAGCUAUGGGUCUCUUUUGUUUGAUGGUUGCUUUCUUGAUUUUGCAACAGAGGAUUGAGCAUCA; result = 0.196 ratio
Oligonucleotide = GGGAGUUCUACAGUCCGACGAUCUCCCUGCCCUUGGGGCCAAGCUUGGACCUCCUUGGCCCCGAACCCUGGUCCACCCCGGUUUGUCAGGGCUCCCAGUCCAGCGAGAUGCCACUUCCUAGCCUCAGAGCUGCUGGGCAGGGACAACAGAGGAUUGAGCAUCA; result = 0.285 ratio
Oligonucleotide = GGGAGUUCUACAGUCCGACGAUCGGCUUUUCCCAGUCCUUCACGCAAGAGCAAGUAGCUGAUAUUGACGGGCAGUAUGCAAUGACUAGGGCUCAGAGGGUCCGAGCUGCCAUGUUCCCUGAGACGCUAGAUGAGGGCAUGCAGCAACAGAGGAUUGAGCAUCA; result = 0.194 ratio
Oligonucleotide = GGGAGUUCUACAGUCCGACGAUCGUAGUUGGAGGGUACUUCGGCAUUCAGCGCUGCAAGACUUUGGACUGUUACGACCCAACUUUAGAUGUGUGGAACAGCAUAACCACUGUUCCCUACUCUCUGAUCCCUACUGCAUUCGUCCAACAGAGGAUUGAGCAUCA; result = 0.108 ratio
Oligonucleotide = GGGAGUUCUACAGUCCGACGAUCAGCAAGUUUUACAGCUUUAAUGCUCUGGCUUUCUUUACUUUCUCAUGAUUACAGCUUUGUAUGUUACUCUUAUUUAACAGGACCUCUGUUGUAUUGAUUUCUUCUGUAUCUUCCUUUUGACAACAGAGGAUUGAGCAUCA; result = 0.286 ratio
Oligonucleotide = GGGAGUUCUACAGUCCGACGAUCCAGAAAAACCUUUGUUUUGGUGUGCACAUCCAUUUUGUUUUUGCUUUAAUUUGUGUUCUGAGUAUUUGGUGCACAAUGGAAAUUAUAUUUUCUACUUUACUGUCUUCAAUUUGGUUAUAGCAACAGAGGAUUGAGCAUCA; result = 0.264 ratio
Oligonucleotide = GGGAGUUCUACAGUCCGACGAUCGAAAUAGCAAGUCUUGAUUCAGAGAAUAUAGAUGAAAUUUUAAAUAAUGCUGAUGUUGCUUUAGUAAAUUUUUAUGCUGACUGGUGUCGUUUCAGCCAGAUGUUGCAUCCAAUUUUUGAGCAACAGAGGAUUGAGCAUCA; result = 16.7 ratio
Oligonucleotide = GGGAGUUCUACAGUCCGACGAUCCUGGAGGAGCUGAAACUUGAAUCUGCAGAGCUCUAUGCCGAGGCCAUAAAGCGGGAUACCAGCCUAUUCCCCUUCGAGAAAGAAGGGCCACAUUACACACCACCUAUCUCUAACUACCAGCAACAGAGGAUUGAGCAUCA; result = 0.271 ratio
Oligonucleotide = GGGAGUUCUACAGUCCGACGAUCUUUACCAGUAAUGCCUUUAGAAAAUUAUCAAAUUCCUCUUCGAGUGUUUCACCCCUAAUUUUGUCUUCCAAUUUGCCUGUGAACAAUAAAACGGAACACAAUAAUAAUGACGCUAAACAGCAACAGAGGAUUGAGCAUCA; result = 10 ratio

Series 4 — method: protein-binding microarray; molecule type: double-stranded DNA, one strand shown; sample: in vitro; tested at: 250 nM; notes: 60-bp whole probe; together with: salmon DNA 0.4 mg/ml; relative to: random background probes; reading: higher = stronger binding; quantity: log fluorescence; constant ends, left off below: GCCTAGCAC … GTCTTGATTCGCTTGACGCTGCTG
Target: Interferon regulatory factor 7, full length, phosphomimetic (IRF7, Homo sapiens, UniProt Q92985, residues 1-503, S101K/S471D/S472D/S475D/S476D/S477D/S483D/S484D/S487D)
Chain of UniProt Q92985 (whole entry, unmodified, looked up): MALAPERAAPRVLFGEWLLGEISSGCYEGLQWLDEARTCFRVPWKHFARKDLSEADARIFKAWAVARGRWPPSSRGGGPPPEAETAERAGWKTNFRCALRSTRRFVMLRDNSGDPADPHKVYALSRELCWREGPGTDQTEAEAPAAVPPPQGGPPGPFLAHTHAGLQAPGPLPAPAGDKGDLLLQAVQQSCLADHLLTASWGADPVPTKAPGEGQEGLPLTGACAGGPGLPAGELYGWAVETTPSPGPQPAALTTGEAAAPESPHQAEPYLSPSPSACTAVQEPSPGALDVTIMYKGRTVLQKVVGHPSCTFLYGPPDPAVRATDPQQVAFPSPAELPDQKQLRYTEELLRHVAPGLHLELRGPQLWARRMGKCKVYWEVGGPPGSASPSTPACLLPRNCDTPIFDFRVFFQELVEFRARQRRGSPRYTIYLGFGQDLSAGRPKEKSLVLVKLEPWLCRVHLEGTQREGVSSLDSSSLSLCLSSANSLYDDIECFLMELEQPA
Oligonucleotide = GCCGGTTTCCTTATCCTGACGTGCTAG; result = 4.08 z-score
Oligonucleotide = TTAGCTATCAGTCTCGATTAGTGCTAG; result = 1.15 z-score
Oligonucleotide = GGATGACTCCCTCTCTGGCCGTGCTAG; result = -0.423 z-score
Oligonucleotide = GACGGTCTGGACTTTCGGGACGTGCTA; result = -0.544 z-score
Oligonucleotide = GACGGTATCGGGTACCGGGACGTGCTA; result = 0.275 z-score
Oligonucleotide = GACGGTCTCCTTCTCCCGACGTGCTAG; result = 0.242 z-score
Oligonucleotide = TGACCTGCTCCAAACACCTCGTGCTAG; result = 0.121 z-score
Oligonucleotide = TTAGATCTCAGACTTGATTAGTGCTAG; result = 0.109 z-score
Oligonucleotide = GATGAACTGGGGACTGGAGACGTGCTA; result = -0.811 z-score
Oligonucleotide = CACTCCACCTCTGTGCTCTTGTGCTAG; result = -0.121 z-score
Oligonucleotide = GACGGTATCCTCCTGCTGACGTGCTAG; result = -0.349 z-score
Oligonucleotide = TTAGAACTGGGGAATGGATTAGTGCTA; result = -0.359 z-score
Oligonucleotide = GACGGAGTGGGTTTCGGGACGTGCTAG; result = 1.59 z-score
Oligonucleotide = GACGATATCTGGTATCGAGACGTGCTA; result = 0.0876 z-score
Oligonucleotide = AACGGTCTCCTTCTCCTGACGTGCTAG; result = 0.000887 z-score
Oligonucleotide = TTAGGACTGGACTTTAGGTTAGTGCTA; result = -0.581 z-score
Oligonucleotide = GACGGTTTCGACTAGCGGGACGTGCTA; result = 6.99 z-score
Oligonucleotide = TTAAGTTTCGACACTGGGTTAGTGCTA; result = 3.91 z-score
Oligonucleotide = GAACCTTGGCCTCTAGGTTTGTGCTAG; result = 0.142 z-score
